Measured values pooled from the literature.
Protocols differ between the studies behind these lines. Values joined by “and” are separate records of one study, mostly repeats; a detail may differ. ± marks the error that the study gave.

SMILES	cell line	test	test system	conditions	scale	measurement	result
CC(C)c1ccc(N(C)c2ccc3c(c2)OCC[C@H]3CNc2cnccc2C(=O)O)cc1	Calu-6	cell viability, CellTiter-Glo		7 days		IC50	14.9 nM
C=CC(=O)N1[C@@H](c2ccc3c(c2)OCO3)c2[nH]c3ccccc3c2C[C@H]1C(=O)NC1CC1	rat DRG neurons			30 µM, 48 h, with: vincristine 40 nM		neuron degeneration	16.9% and 16.1%
COc1ccc(CC[C@H]2OC(=O)[C@@H]3CCCCN3C(=O)C(=O)C(C)(C)COC(=O)/C=C/CCN(C)C(=O)[C@H](CC(C)C)N(C)C(=O)[C@@H]3CCCN3C(=O)[C@H](Cc3ccccc3)N(C)C(=O)[C@H](c3ccccc3)NC(=O)CCC(=O)Nc3cccc2c3)cc1OC	Jurkat T cells, wild type	[3H]-thymidine incorporation, inhibitor		3 h		EC50	48.5 nM
COC(=O)c1cc(NC2=NC(=O)C(=Cc3ccc(N(C)C)cc3)S2)ccc1OC(C)=O	MCF7	GC-MS, refers to: Butanedioic acid		1 µM	baseline: DMSO	metabolite level	-0.18 fold change
CC(C)Cc1ccc(C(C)C(=O)[Se]CC(=O)Nc2cccc(C(F)(F)F)c2)cc1 (centres unmarked)	NCI60 colon subpanel	NCI60 five-dose screen				mean TGI	11600 nM
CNS(=O)(=O)Nc1nccc(Cc2c(C)c3ccc(Oc4ncccc4F)cc3oc2=O)c1F	Caov-3	cell viability		7 days		IC50	> 1000 nM
Cc1ncsc1-c1ccc(C(C)NC(=O)C2CC(O)CN2C(=O)C(NC(=O)CCCCCCCCCCN2CCCC(Nc3ncc(Cl)c(Nc4ccccc4S(=O)(=O)C(C)C)n3)C2)C(C)(C)C)cc1 (centres unmarked)	22Rv1	RNA-seq, refers to: RFWD3 mRNA		concentration not given	baseline: DMSO	log2 fold change	-1.97
C1=[N+]2CCCC[N+]3=Cc4ccc5[n]4[Au-]23[n]2c1ccc2-c1nc2ccccc2nc1-5.F[P-](F)(F)(F)(F)F	SN12C	NCI60 five-dose screen				TGI	5.31 -log M
O=C(C[Se]C(=O)c1cccnc1Nc1cccc(C(F)(F)F)c1)Nc1cccc(C(F)(F)F)c1	NCI60 colon subpanel	NCI60 five-dose screen				mean TGI	9340 nM
O=C(O)C1OC(Oc2cc(O)c3c(=O)c(O)c(-c4ccccc4)oc3c2)C(O)C(O)C1O (centres unmarked)	MDCKII-UGT1A1/MRP2 cells	glucuronide efflux, substrate				Jmax	31.4 ± 2.1 pmol/mg/min
Cn1ncc(-c2ccc3c(=O)[nH]nc(CN)c3c2)c1-c1c(F)c(Cl)cc(OC2CC2)c1C#N	Reh	cell viability, inhibitor, CellTiter-Glo		120 h		IC50	80 nM
CCN(CC)CCNC(=S)Nc1ccc2nc(N3CCN(CC)CC3)cc(C)c2c1	U2OS HDR-GFP reporter	homologous recombination repair, flow cytometry		5 µM		GFP-positive cells	6.98%
COc1ncccc1CN(C(=O)OCc1ccc([N+](=O)[O-])s1)[C@H]1C[C@@H]1c1ccccc1 (racemic)	THP-1 cells expressing NTR	MTS		72 h		GI50	12100 ± 1300 nM
CC[C@H](C)C(=O)O[C@H]1C[C@@H](C)C=C2C=C[C@H](C)[C@H](CC[C@@H]3CC=CC(=O)O3)[C@H]21	T84	short-circuit current		50 µM, with: forskolin 20 µM		maximal inhibition	> 80%
COc1cccc(OC)c1-c1cc(C(=O)NC2(C(=O)O)C3CC4CC(C3)CC2C4)nn1-c1ccc(C(=O)N(C)CCOCCN(C)C(=O)[C@H](CCCCNC(=O)[C@H](CC(C)C)NC(=O)C2OC2C(=O)O)NC(=O)CN2CCN(CC(=O)[O-])CCN(CC(=O)[O-])CCN(CC(=O)[O-])CC2)cc1C(C)C.[177Lu+3] (mixture of isomers)	HT-29			concentration not given, 30 min	baseline: added activity	surface-bound fraction	1.83 ± 0.07%
COc1ccccc1-c1ccncc1C(=O)Nc1nnc(OCc2ccc(Cl)cc2)s1	PEO1 BRCA2-mutant			1.00 µM, with: olaparib 0.25 µM		colony survival	0%
O=C(NCc1cc(F)cc(F)c1)[C@@]1(O)CCN(c2ccc3[nH]ccc3c2)C1=O	PAXF736	colony formation, soft agar clonogenic	pancreas tumour			efficacy	45%
O=C(CCCCCOc1ccc2ccccc2c1)N[C@@H](CO)C[C@@H](O)c1ccc(-c2ccccc2)cc1	HeLa	CERT activity, HPLC-MS/MS lipidomics, refers to: ceramide 20		1 µM, 24 h, not cell-number normalised		ceramide level	124 pmol/sample and 106 pmol/sample and 151 pmol/sample
Cc1ccc(-n2cc(CSc3nc4ccccc4n3Cc3cn(-c4ccc(C)cc4)nn3)nn2)cc1	Caco-2	MTT		31.3 ppm		cytotoxicity	77.5%

SMILES	cell line	test	test system	conditions	scale	measurement	result
O=CCNCCOn1c(=O)n(OCCNCCO)c(=O)n(OCCNCCOn2c(=O)n(OCCNCCO)c(=O)n(OCCNCCO)c2=O)c1=O	A549	cell growth or viability, MTT		200 µg/mL, 72 h		viability	18.5%
CN1CCCNC(=O)c2cccc(c2)C(=O)NCCCN(C)CCCNc2cccc3c2C(=O)c2cccc(c2C3=O)NCCC1	SAS	RNA-Seq, refers to: BLCAP mRNA		1 µM, 6 h	baseline: untreated cells	log2 fold change	-0.484
CO[C@@H]1[C@@H](OC(N)=O)[C@@H](O)[C@H](Oc2ccc3c(O)c(NC(=O)c4ccc(O)c(CC=C(C)C)c4)c(=O)oc3c2C)OC1(C)C	DLD-1 BRCA2-/-			150 µM, replicate 1		colony count	0.1
O=C(C[Se]C(=O)c1ccc2ccccc2c1)Nc1cccc(C(F)(F)F)c1	NCI60 colon subpanel	NCI60 five-dose screen				mean TGI	7840 nM
CC(C)n1nc(C(F)F)cc1C(=O)Nc1ccc([C@H]2[C@@H](O)CCCc3cncn32)c(-c2ccccc2)c1	BRD4-HiBiT cells	BRD4 degradation rescue, inhibitor		8 h, with: dBET6 500 nM		EC50	99.7 nM
O=C(O)C1OC(Oc2c(-c3ccccc3)oc3cc(O)ccc3c2=O)C(O)C(O)C1O (centres unmarked)	MDCKII-UGT1A1/MRP2 cells	glucuronide efflux, substrate				Jmax	6.07 ± 1.94 pmol/mg/min
CCOc1cncc(-c2ccc(NC(=O)C3(c4ccnc(NS(=O)(=O)C5CC5)n4)CCOCC3)nc2)n1	CAL-51	cell growth or viability, ATP luminescence		72 h		IC50	103 nM
CC(=O)N[C@@H](Cc1ccc(I)cc1)C(=O)N[C@@H](CCC(=O)O)C(=O)N[C@H](C(=O)N[C@@H](CC(=O)O)C(=O)COC(=O)c1c(C)cccc1C)[C@@H](C)O	THP-1 cells expressing FKBP-caspase-11	pyroptosis, inhibitor		concentration not given, with: B/B dimerizer		LDH release	25.1% and 26% and 35.9%
CSC(=S)N/N=C(\C)c1ccc(Nc2nnc(-c3ccc(Cl)cc3)c3ccccc23)cc1	MCF7	cell growth or viability, MTT		10 µM, 24 h		viability	7.17%
CNC(=O)CCN(Cc1ccc(C(F)F)cc1)C(=O)c1cc2c(OC)ccc(-c3ccc(=O)n(C)c3)c2s1	murine AML cells	BRD4 chromatin occupancy, ChIP-seq, refers to: Cd47 locus		concentration not given	baseline: DMSO	log2 fold change	-2.93
CCC(=CCc1c(O)cc2c(c1O)C(=O)CC(c1ccc(O)cc1)O2)CC (centres unmarked)	HeLa	annexin V/PI staining		48 µM, 48 h		necrotic cells	4.13 ± 0.31%
COC(=O)c1cc(NC2=NC(=O)C(=Cc3ccc(C)cc3)S2)ccc1OC(C)=O	MCF7	GC-MS, refers to: Palmitic acid		1 µM	baseline: DMSO	metabolite level	0.3 fold change
CCN(C(=O)c1cc(F)ccc1Oc1nncnc1N1CCC2(C1)CN([C@H](CCCN(C)CCOC)C(C)C)C2)C(C)C	Granta-519	cell growth or viability		7 days		GI50	> 10000 nM
Cn1ncc2cc(-c3cncc(Cl)c3N3CCC4(CCNC4=O)CC3)ccc21	LS174T	gene expression, microarray, refers to: RRM2 mRNA		concentration not given, 4 h	baseline: untreated cells	log2 fold change	-1.4
CCN(CC)CC(=O)Nc1cccc(-n2cc(-c3ccc4ccc(-c5cn(-c6cccc(NC(=O)CN(CC)CC)c6)nn5)cc4c3)nn2)c1	RCC4	PCR angiogenesis array, refers to: EFNB2		5 x IC50, 4 h, normoxia	baseline: untreated	fold regulation	-1.34
C#CCCCC(O)/C=C/C(=O)NC1(c2ccc(-c3nc4ccn5c(=O)[nH]nc5c4cc3-c3ccccc3)cc2)CCC1 (centres unmarked)	MDA-MB-468	flow cytometry, PI staining		EC60 concentration, 72 h, DMSO 22.2		cells in S phase	27.4%
CN1CC[C@@H](COc2cnc(C#N)cc2-c2ccn3nc(NC(=O)C4CC4)cc3c2)C1	human monocyte-derived macrophages	IL-10 release, inducer		3 h, with: LPS		EC50	420 nM
O=C(C[Se]C(=O)c1ccccc1Nc1ccccc1)Nc1cccc(C(F)(F)F)c1	NCI60 colon subpanel	NCI60 five-dose screen				mean TGI	7380 nM
c1ccc2c(Cc3[nH]c4ccccc4c3Cc3c[nH]c4ccccc34)c[nH]c2c1	human monocytes			5 µM	baseline: DMSO	IL-6 induction	increased

For quick reference, copied from above:
SMILES	cell line	test	test system	conditions	scale	measurement	result
O=C(NCc1cc(F)cc(F)c1)[C@@]1(O)CCN(c2ccc3[nH]ccc3c2)C1=O	PAXF736	colony formation, soft agar clonogenic	pancreas tumour			efficacy	45%
O=C(O)C1OC(Oc2cc(O)c3c(=O)c(O)c(-c4ccccc4)oc3c2)C(O)C(O)C1O (centres unmarked)	MDCKII-UGT1A1/MRP2 cells	glucuronide efflux, substrate				Jmax	31.4 ± 2.1 pmol/mg/min
